Experimental data pooled from the literature.
Protocols differ between the studies behind these lines.
Cell line: SW-620

Cn1cc(-c2ccc(-c3cncc(Cl)c3N3CCC4(CCNC4=O)CC3)cc2)cn1: inhibition “no inhibition” (E2F1 Ser375 phosphorylation, ELISA; 1 µM).
With CCCC(CCC)C(=O)OCc1cn(-c2c3ccccc3nc3ccccc23)nn1 the growth percentage was 92.2% (NCI60 single-dose screen; 10 µM).
CCCCN1CCN(c2ccc3[nH]c(-c4ccc5[nH]c(-c6ccc(OCC)c(OCC)c6)nc5c4)nc3c2)CC1 has a growth percent of -80.3% (SRB; 10 µM, 48 h).
Cc1cc(=O)[nH]n1-c1nc(-c2ccc(Cl)cc2)c2c(NC(=O)c3ccccc3)nnc-2[nH]1 gave a cell growth of 97% (SRB; 10 µM, NCI60 single-dose screen, colon cancer; baseline: untreated).
For Nc1ncnc2c1ncn2C1CCCC1, “decrease of IP6 level” read roughly 4 fold (100 µM, 96 h; baseline: DMSO).
NNc1nc(-c2ccc(Cl)cc2)c2c(NC(=O)c3ccccc3)nnc-2[nH]1 gave a cell growth of 107% (SRB; 10 µM, NCI60 single-dose screen, colon cancer; baseline: untreated).
With CCCCN1CCN(c2ccc3nc(-c4ccc5nc(-c6cc(OC)ccc6OC)[nH]c5c4)[nH]c3c2)CC1 the growth percent was 105% (SRB; 10 µM, 48 h).
The TGI of C#C[C@@]1(O)[C@@H](CO)O[C@@H](n2cc(Br)c3c(N)ncnc32)[C@@H]1O is reported as greater than 100 µM (SRB; NCI-60 screen).
With O=C(Nc1nnc2[nH]c(=S)[nH]c(-c3ccc(Cl)cc3)c1-2)c1ccccc1 the cell growth was 103% (SRB; 10 µM, NCI60 single-dose screen, colon cancer; baseline: untreated).
CCCCN1CCN(c2ccc3[nH]c(-c4ccc5[nH]c(-c6cc(OC)c(OC)c(OC)c6)nc5c4)nc3c2)CC1 has a growth percent of 60.3% (SRB; 10 µM, 48 h).
With O=C1NCCc2[nH]c(-c3ccncc3)cc21 the IC50 was 3.93 µM (MTS; colon cancer).
For S=C([S][Au-][P+](CCCCCC[P+]([Au-][S]C(=S)n1cccn1)(c1ccccc1)c1ccccc1)(c1ccccc1)c1ccccc1)n1cccn1, the log10 TGI was greater than -4 (cell growth, NCI-60 screen; colon cancer).
CCCN1CCN(c2ccc3nc(-c4ccc5nc(-c6cc(OC)ccc6OC)[nH]c5c4)[nH]c3c2)CC1 gave a growth percent of -70.2% (SRB; 10 µM, 48 h).
The cell growth of CCOC(=O)CSc1nc(-c2ccc(Cl)cc2)c2c(NC(=O)c3ccccc3)nnc-2[nH]1 is reported as 96.4% (SRB; 10 µM, NCI60 single-dose screen, colon cancer; baseline: untreated).
The selectivity index of O=P1(C2CCCCC2)CCCCC1 is reported as 6.2 (MTT; 72 h; baseline: IC50 HaCaT over IC50 SW-620).
O=C1NC(c2ccccc2)(c2ccccc2)C(=O)N1Cc1cn(-c2cc3ccccc3oc2=O)nn1 gave a growth percentage of 96.8% (NCI60 single-dose screen; 10 µM).
For O=P1(c2ccccc2)CCCCC1, the selectivity index was 1 (MTT; 72 h; baseline: IC50 HaCaT over IC50 SW-620).
With CCn1cc(-c2cc(Cn3ccnc3)cc3c2CCN([C@H](c2cc(OC)ccn2)C2CC2)C3=O)c(C(F)(F)F)n1 the EC50 was 0.0283 µM (cell growth, inhibitor; 120 h).

Excerpt of the above:
For Nc1ncnc2c1ncn2C1CCCC1, “decrease of IP6 level” read roughly 4 fold (100 µM, 96 h; baseline: DMSO).
